Measured values gathered from unrelated publications.
Every numbered part comes from another study and shows a few of its results, in no order.
Sequence of UniProt O75582 (whole entry, looked up): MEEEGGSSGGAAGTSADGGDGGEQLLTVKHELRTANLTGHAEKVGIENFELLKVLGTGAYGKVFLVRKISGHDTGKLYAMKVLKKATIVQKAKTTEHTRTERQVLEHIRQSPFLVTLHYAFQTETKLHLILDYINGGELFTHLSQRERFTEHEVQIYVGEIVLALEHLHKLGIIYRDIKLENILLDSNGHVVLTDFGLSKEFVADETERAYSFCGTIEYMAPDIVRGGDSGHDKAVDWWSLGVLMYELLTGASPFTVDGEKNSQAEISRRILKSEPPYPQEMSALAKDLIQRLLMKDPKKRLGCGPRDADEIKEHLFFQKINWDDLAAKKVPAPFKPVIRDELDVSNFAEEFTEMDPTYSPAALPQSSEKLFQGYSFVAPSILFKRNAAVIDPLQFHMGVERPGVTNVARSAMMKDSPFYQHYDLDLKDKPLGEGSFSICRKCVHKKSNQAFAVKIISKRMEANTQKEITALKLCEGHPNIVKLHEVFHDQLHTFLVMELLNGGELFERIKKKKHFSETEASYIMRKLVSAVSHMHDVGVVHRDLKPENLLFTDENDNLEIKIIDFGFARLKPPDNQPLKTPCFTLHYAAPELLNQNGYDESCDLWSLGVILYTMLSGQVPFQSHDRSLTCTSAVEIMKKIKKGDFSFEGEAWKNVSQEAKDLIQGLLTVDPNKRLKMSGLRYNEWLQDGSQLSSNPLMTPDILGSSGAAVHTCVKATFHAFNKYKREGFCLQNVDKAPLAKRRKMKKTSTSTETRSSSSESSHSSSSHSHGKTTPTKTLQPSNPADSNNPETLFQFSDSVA
Sequence of UniProt P11802 (whole entry, looked up): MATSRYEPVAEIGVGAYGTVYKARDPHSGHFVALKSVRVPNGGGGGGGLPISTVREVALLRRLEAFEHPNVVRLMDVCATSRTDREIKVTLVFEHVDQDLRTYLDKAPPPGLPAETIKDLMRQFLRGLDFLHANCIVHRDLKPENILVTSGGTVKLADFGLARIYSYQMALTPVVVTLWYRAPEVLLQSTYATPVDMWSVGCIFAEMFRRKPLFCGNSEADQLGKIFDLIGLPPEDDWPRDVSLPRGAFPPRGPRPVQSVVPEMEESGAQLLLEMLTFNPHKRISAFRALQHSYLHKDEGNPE
Sequence of UniProt P51451 (whole entry, looked up): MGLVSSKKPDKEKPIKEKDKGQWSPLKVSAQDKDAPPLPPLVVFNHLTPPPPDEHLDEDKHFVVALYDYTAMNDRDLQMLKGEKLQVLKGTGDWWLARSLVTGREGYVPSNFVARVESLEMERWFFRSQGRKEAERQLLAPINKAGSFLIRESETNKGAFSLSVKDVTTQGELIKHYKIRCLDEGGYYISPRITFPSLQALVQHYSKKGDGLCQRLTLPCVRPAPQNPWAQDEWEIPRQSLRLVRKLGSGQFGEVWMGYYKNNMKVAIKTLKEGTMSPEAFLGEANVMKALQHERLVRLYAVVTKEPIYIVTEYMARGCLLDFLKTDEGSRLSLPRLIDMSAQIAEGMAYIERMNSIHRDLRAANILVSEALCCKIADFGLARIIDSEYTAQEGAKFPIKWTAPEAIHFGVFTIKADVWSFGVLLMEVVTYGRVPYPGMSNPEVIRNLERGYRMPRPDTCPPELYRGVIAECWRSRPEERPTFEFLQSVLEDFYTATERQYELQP
Sequence of UniProt O95819 (whole entry, looked up): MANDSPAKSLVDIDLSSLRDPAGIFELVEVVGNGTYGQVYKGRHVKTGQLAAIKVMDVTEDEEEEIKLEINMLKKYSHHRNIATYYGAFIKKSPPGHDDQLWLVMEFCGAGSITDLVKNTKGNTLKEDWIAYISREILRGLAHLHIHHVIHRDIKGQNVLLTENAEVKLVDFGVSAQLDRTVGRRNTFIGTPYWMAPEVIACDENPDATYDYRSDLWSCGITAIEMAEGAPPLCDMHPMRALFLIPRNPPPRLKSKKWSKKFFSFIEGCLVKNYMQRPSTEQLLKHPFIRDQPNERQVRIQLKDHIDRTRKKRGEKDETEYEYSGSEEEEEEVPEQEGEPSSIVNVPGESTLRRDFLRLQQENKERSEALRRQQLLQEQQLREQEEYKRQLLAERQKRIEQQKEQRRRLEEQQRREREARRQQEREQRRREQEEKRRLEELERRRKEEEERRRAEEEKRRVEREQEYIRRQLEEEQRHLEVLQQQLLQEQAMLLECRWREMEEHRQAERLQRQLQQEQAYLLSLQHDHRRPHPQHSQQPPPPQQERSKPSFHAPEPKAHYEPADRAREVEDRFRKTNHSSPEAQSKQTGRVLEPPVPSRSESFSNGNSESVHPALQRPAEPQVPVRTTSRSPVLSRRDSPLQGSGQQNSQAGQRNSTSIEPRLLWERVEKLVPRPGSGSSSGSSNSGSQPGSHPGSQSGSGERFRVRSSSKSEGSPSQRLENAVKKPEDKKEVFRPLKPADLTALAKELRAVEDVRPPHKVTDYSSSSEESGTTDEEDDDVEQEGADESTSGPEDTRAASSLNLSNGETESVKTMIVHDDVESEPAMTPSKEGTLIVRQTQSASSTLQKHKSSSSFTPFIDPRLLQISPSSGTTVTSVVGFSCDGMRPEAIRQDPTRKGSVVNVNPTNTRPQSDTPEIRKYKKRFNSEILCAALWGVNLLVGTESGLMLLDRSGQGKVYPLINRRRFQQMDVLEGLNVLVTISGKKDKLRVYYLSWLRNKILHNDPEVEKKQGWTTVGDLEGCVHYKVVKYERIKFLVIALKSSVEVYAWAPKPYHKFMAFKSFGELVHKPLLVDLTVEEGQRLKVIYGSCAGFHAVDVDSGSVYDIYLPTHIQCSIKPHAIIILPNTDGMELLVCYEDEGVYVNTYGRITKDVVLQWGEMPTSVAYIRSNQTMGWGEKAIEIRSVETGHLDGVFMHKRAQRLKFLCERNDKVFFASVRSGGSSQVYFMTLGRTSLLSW
Sequence of UniProt O75716 (whole entry, looked up): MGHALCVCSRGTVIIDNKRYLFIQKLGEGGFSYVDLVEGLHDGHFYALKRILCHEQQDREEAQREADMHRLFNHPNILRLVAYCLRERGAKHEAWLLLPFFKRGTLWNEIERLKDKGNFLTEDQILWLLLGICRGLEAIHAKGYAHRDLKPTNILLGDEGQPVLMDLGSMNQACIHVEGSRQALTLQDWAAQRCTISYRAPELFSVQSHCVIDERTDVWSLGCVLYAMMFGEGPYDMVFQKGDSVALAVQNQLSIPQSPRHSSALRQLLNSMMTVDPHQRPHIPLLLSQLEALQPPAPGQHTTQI
Sequence of UniProt Q8NE63 (whole entry, looked up): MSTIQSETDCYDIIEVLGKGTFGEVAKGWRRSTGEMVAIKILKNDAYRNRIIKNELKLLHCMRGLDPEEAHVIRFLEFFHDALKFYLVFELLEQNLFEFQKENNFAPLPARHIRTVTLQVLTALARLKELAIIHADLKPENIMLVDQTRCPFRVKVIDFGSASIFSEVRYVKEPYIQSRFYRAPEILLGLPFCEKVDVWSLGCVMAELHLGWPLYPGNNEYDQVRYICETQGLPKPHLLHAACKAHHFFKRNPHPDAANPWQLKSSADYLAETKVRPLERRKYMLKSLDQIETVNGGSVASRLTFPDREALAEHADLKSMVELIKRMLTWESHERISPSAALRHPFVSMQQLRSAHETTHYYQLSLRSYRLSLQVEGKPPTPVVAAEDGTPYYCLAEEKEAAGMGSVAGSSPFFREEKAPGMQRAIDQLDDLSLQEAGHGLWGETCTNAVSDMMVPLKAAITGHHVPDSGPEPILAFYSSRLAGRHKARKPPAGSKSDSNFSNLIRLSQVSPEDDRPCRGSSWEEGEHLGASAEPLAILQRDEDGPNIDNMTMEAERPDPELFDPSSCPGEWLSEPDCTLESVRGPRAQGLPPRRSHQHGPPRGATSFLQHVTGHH

Sample 1
SMILES: C=CCc1ccc(O)c(-c2cc(CC=C)ccc2O)c1
ANO1 del476-501/E649A/R541A: Anoctamin-1 (ANO1, Homo sapiens, UniProt Q5XXA6, del476-501/E649A/R541A)
Sequence of UniProt Q5XXA6 (whole entry, unmodified, looked up): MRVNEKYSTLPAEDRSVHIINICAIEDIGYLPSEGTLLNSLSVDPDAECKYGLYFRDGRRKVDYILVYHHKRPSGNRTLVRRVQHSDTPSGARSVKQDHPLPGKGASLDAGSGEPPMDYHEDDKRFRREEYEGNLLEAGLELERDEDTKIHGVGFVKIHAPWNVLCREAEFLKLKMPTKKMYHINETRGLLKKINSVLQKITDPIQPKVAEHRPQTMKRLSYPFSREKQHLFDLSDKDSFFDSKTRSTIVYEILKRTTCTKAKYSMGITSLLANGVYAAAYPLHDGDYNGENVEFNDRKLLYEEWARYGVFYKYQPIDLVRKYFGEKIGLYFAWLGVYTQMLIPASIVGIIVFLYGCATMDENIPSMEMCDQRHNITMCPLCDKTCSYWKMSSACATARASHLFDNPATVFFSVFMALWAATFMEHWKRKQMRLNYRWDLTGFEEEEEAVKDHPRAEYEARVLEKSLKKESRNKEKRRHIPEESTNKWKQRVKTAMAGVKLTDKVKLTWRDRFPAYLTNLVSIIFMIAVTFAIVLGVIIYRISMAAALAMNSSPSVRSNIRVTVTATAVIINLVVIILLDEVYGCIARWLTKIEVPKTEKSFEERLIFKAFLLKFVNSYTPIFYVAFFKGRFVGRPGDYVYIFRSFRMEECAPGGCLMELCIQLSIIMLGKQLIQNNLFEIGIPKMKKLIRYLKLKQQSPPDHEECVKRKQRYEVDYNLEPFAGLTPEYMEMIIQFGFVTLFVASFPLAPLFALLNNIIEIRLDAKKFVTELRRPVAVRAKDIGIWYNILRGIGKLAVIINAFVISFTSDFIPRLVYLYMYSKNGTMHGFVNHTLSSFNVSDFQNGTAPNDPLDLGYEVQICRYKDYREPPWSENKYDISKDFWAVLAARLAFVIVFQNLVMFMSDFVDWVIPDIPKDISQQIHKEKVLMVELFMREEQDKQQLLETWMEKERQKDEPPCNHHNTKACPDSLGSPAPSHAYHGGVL
target	assay	setting	how to read	normalized current
ANO1 del476-501/E649A/R541A	chloride current, inside-out patch clamp	30 µM, membrane voltage -20 mV	–	-0.0869
Anoctamin-1 (ANO1, Homo sapiens, UniProt Q5XXA6, del476-501/E649A)	ion current, inside-out patch clamp	30 µM, E623A mutant at 20 mV	–	0.128
ANO1 del476-501/E649A/R541A	chloride current, inside-out patch clamp	30 µM, membrane voltage 80 mV	–	0.541
ANO1 del476-501/E649A/R541A	chloride current, inside-out patch clamp	30 µM, membrane voltage 60 mV	–	0.349
Anoctamin-1 (ANO1, Homo sapiens, UniProt Q5XXA6, del476-501/E659A)	chloride current, inside-out patch clamp	30 µM, membrane voltage -60 mV	–	-0.63
TMEM16A (human) K603A/E623A	chloride current, inside-out patch clamp	30 µM, membrane voltage -60 mV	–	-0.196
ANO1 del476-501/E649A/R541A	chloride current, inside-out patch clamp	30 µM, membrane voltage 0 mV	–	0.0068
Anoctamin-1 (ANO1, Homo sapiens, UniProt Q5XXA6)	chloride current, inside-out patch clamp	30 µM, membrane voltage -60 mV	–	-0.683
Anoctamin-1 (ANO1, Homo sapiens, UniProt Q5XXA6, del476-501/M544A)	chloride current, inhibitor, whole-cell voltage clamp	3 µM, M518A mutant	baseline: untreated	0.984

Sample 2
SMILES: Clc1ccc(Nc2nnc(Cc3ccncc3)c3ccccc23)cc1
Observed: enzyme activity
Action: inhibitor
Tested at: 0.5 µM
Baseline: control
target	remaining activity
Cyclin-dependent kinase 4, with cyclin D3 (CDK4, Homo sapiens, UniProt P11802)	102%
Homeodomain-interacting protein kinase 4 (HIPK4, Homo sapiens, UniProt Q8NE63)	95.9%
Ribosomal protein S6 kinase alpha-5 (RPS6KA5, Homo sapiens, UniProt O75582)	85.5%
cAMP-dependent protein kinase catalytic subunit gamma (PRKACG, Homo sapiens, UniProt P22612)	116%
Testis-specific serine/threonine-protein kinase 2 (TSSK2, Homo sapiens, UniProt Q96PF2)	82.8%
Serine/threonine-protein kinase WNK3 (WNK3, Homo sapiens, UniProt Q9BYP7)	99.1%
Ephrin type-A receptor 4 (EPHA4, Homo sapiens, UniProt P54764)	102%
MAP kinase-activated protein kinase 3 (MAPKAPK3, Homo sapiens, UniProt Q16644)	98.9%
Cyclin-dependent kinase 6, with cyclin D3 (CDK6, Homo sapiens, UniProt Q00534)	125%
Tyrosine-protein kinase ABL1 (ABL1, Homo sapiens, UniProt P00519)	96.5%
Cyclin-dependent kinase 1, with cyclin B (CDK1, Homo sapiens, UniProt P06493)	104%
Tyrosine-protein kinase Blk (BLK, Homo sapiens, UniProt P51451)	105%
Mitogen-activated protein kinase kinase kinase kinase 4 (MAP4K4, Homo sapiens, UniProt O95819)	107%
3-phosphoinositide-dependent protein kinase 1 (PDPK1, Homo sapiens, UniProt O15530)	88.3%
Ribosomal protein S6 kinase alpha-6 (RPS6KA6, Homo sapiens, UniProt Q9UK32)	99.7%
Phosphorylase b kinase gamma catalytic chain, skeletal muscle/heart isoform (PHKG1, Homo sapiens, UniProt Q16816)	94.2%
Tyrosine-protein kinase Srms (SRMS, Homo sapiens, UniProt Q9H3Y6)	91.8%
Ephrin type-B receptor 4 (EPHB4, Homo sapiens, UniProt P54760)	85.1%
Dual specificity tyrosine-phosphorylation-regulated kinase 3 (DYRK3, Homo sapiens, UniProt O43781)	95.9%
Serine/threonine-protein kinase 16 (STK16, Homo sapiens, UniProt O75716)	93.5%

Sample 3
Target: Diamine acetyltransferase 1 (Homo sapiens, UniProt P21673)
Action: inhibitor
Tested at: 10 µM
Baseline: control
Construct (P21673 1-171): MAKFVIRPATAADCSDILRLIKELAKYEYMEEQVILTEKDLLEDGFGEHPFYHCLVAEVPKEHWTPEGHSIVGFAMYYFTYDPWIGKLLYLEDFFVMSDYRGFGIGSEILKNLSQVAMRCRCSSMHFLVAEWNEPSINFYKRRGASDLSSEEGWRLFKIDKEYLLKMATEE
SMILES	remaining activity [%]
C/C1=C\CC/C(C)=C/CC(C)(C)/C=C/C1	98.7
CNc1ccccc1C(=O)OC	87.7
O=c1oc2c(O)c(O)cc3c(=O)oc4c(O)c(O)cc1c4c23	96
C=C1CC[C@]2(C)CC[C@]3(C)[C@H](CC[C@@H]4[C@@]5(C)CC[C@H](O)C(C)(C)[C@@H]5CC[C@]43C)[C@H]2[C@@H]1C	75.3
OCc1ccc(O[C@@H]2O[C@H](CO)[C@@H](O)[C@H](O)[C@H]2O)cc1	96
COc1ccc2c(c1OC)O[C@H]1c3ccc(O[C@@H]4O[C@H](CO)[C@@H](O)[C@H](O)[C@H]4O)cc3OC[C@@H]21	104
O=c1ccn([C@@H]2O[C@H](CO)[C@@H](O)[C@H]2O)c(=O)[nH]1	107
Cc1ccc(C(C)C)c(O)c1	101
Nc1ncnc2c1ncn2[C@@H]1O[C@H](CO)[C@@H](O)[C@H]1O	95.7
C[C@@H](O)[C@@H](C)O	89.7
C=CCCCCCCCCC(=O)O	83.4
CC1=C(C=O)C(C)(C)CCC1	88.3
C[C@H](CC(=O)C[C@@H](C)[C@H]1CC(=O)[C@@]2(C)C3=C(C(=O)C[C@]12C)[C@@]1(C)CC[C@H](O)C(C)(C)[C@@H]1C[C@@H]3O)C(=O)O	123
C[C@@H]1C[C@@H]([C@@H](O)C(C)(C)O)O[C@H]2C[C@@]3(C)C(=C12)C[C@H](O)[C@H]1[C@@]2(C)CCC(=O)C(C)(C)[C@@H]2CC[C@@]13C	103
COc1ccc(-c2cc(=O)c3c(O)cc(O[C@@H]4O[C@H](CO)[C@@H](O)[C@H](O)[C@H]4O)cc3o2)cc1O	110
Cc1cc(Cc2cc(C)cc(C(C)(C)C)c2O)c(O)c(C(C)(C)C)c1	100
O=C(/C=C/c1ccc(O)c(O)c1)OC[C@@H](O)CO[C@@H]1O[C@H](CO)[C@@H](O)[C@H](O)[C@H]1O	97.9
COC(=O)C1=CO[C@@H](O[C@@H]2O[C@H](CO)[C@@H](O)[C@H](O)[C@H]2O)[C@@H]2C(CO)=C[C@H](O)[C@H]12	77.5

Other studies, line by line
Compound	target	observed	technique	measurement	value
O=C([C@H]1C[C@H](O)CN1c1ccc(Cl)cc1)N1CC2COCC(C1)N2Cc1ccc(Cl)cc1	Alpha-2B adrenergic receptor (ADRA2B, Homo sapiens, UniProt P18089)	binding	radioligand binding	Ki	> 10 µM

For quick reference, copied from above (sample 3):
SMILES	remaining activity [%]
O=c1oc2c(O)c(O)cc3c(=O)oc4c(O)c(O)cc1c4c23	96
C=C1CC[C@]2(C)CC[C@]3(C)[C@H](CC[C@@H]4[C@@]5(C)CC[C@H](O)C(C)(C)[C@@H]5CC[C@]43C)[C@H]2[C@@H]1C	75.3
OCc1ccc(O[C@@H]2O[C@H](CO)[C@@H](O)[C@H](O)[C@H]2O)cc1	96
COc1ccc2c(c1OC)O[C@H]1c3ccc(O[C@@H]4O[C@H](CO)[C@@H](O)[C@H](O)[C@H]4O)cc3OC[C@@H]21	104
O=c1ccn([C@@H]2O[C@H](CO)[C@@H](O)[C@H]2O)c(=O)[nH]1	107
Cc1ccc(C(C)C)c(O)c1	101
Nc1ncnc2c1ncn2[C@@H]1O[C@H](CO)[C@@H](O)[C@H]1O	95.7
C[C@@H](O)[C@@H](C)O	89.7
